Measured values from different studies.
Every numbered part comes from another study and shows a few of its results, in no order.
Sequence of UniProt Q02763 (whole entry, looked up): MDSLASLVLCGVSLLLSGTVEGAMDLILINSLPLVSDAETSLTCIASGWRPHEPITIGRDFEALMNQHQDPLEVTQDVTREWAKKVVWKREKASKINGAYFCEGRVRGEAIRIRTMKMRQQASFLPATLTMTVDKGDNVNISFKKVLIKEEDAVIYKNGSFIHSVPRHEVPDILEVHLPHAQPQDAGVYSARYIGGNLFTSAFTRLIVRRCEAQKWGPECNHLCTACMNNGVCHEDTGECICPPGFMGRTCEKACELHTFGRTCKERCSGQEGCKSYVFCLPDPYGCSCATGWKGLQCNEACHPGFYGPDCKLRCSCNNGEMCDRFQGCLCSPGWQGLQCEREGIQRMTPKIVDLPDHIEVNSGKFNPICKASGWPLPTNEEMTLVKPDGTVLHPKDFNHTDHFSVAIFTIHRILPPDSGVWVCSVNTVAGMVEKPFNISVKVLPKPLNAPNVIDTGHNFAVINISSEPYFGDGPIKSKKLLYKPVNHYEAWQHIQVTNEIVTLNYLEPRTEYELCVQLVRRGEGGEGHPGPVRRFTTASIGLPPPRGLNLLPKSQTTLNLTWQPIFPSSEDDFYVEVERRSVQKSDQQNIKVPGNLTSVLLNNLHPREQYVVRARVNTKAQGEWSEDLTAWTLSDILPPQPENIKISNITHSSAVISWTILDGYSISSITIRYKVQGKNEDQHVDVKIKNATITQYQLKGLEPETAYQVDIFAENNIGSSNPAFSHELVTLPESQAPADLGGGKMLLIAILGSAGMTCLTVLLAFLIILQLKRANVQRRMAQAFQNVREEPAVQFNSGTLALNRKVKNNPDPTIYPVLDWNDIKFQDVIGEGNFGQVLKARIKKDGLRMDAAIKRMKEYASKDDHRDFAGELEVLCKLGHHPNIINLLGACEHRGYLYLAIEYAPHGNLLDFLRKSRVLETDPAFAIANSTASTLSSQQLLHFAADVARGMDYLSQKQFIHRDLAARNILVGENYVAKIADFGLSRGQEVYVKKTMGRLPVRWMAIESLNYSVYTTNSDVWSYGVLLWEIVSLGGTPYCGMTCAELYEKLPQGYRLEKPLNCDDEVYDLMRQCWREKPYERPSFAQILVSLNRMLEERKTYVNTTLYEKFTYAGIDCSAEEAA
Sequence of UniProt P07332 (whole entry, looked up): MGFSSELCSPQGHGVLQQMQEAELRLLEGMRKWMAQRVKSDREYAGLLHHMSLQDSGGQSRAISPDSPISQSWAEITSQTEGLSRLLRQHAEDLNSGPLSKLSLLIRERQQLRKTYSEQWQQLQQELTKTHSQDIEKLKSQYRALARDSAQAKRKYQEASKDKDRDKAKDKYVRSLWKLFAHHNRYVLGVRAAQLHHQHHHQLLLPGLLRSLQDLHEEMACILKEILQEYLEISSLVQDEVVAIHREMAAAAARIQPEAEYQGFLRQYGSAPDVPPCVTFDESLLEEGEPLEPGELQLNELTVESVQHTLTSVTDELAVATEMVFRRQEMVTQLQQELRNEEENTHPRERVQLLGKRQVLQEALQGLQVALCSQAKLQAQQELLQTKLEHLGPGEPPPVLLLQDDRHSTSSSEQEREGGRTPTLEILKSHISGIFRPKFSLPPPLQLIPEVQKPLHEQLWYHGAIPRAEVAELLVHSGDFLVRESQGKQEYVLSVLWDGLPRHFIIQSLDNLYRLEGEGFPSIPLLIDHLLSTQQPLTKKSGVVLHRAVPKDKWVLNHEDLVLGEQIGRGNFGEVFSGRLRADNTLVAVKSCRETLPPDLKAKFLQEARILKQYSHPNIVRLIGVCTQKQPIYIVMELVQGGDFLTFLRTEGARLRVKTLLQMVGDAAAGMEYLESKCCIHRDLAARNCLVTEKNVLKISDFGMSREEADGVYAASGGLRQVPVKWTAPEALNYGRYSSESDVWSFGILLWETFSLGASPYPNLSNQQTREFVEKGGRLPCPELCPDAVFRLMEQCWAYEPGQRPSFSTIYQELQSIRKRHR
Sequence of UniProt Q16659 (whole entry, looked up): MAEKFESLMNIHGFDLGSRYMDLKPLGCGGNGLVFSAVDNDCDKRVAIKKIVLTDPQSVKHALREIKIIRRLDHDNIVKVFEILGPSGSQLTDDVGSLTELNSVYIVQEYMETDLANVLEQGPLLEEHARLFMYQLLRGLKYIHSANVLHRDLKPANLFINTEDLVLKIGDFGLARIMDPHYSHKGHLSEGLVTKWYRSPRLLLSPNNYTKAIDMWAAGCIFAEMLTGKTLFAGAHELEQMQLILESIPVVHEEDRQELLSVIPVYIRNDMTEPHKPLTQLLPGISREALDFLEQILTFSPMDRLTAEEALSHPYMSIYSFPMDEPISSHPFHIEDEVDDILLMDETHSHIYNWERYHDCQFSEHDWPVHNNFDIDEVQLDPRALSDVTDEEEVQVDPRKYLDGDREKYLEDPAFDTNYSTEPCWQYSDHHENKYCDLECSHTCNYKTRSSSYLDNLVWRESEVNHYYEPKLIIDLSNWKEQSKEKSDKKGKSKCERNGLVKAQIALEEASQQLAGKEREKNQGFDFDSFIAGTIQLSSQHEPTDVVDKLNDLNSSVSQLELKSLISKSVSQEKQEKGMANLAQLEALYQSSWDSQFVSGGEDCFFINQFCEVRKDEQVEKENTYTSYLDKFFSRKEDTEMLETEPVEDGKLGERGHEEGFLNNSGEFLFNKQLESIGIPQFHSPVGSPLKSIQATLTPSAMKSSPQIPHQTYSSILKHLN

Series 1 — cell line: mouse MPNST tumor cells; method: high-content nuclear imaging; item: cell number; tested at: 10 µM; time: 12 h; setting: mean of 2 replicates; baseline: plate mean; direction: higher = more cells
SMILES | nuclei count
Cc1cc(-c2ccccc2)nnc1NCCN1CCOCC1 | 1.84 z-score
CNC(=O)c1c(I)c(C(=O)NCC(=O)Nc2c(I)c(C(=O)O)c(I)c(C(=O)NCCO)c2I)c(I)c(N(C)C(C)=O)c1I | 1.86 z-score
N#Cc1cccc(-c2c[nH]c3ncnc(N4CCOCC4)c23)c1 | 2.19 z-score
CCN1C(=CC(C)=O)Sc2ccc(OC)cc21 | 3.01 z-score

Series 2 — effect on: cell-free assay; method: competition with immobilised ligand; tested at: 1 µM
Compound: NS(=O)(=O)c1cc(NC(=O)C2(c3ccccc3Cl)CC2)ccc1Oc1cccc(Cl)c1
target | remaining binding [%]
MAPK6 (Homo sapiens, UniProt Q16659) | 100
TEK (Homo sapiens, UniProt Q02763) | 69
PAK5 (Homo sapiens, UniProt Q9P286) | 100
PI4KB (Homo sapiens, UniProt Q9UBF8) | 75
FES (Homo sapiens, UniProt P07332) | 64

Series 3 — effect on: enzyme activity; mode: inhibitor; tested at: 0.5 µM; baseline: control
Target: Serine/threonine-protein kinase WNK2 (WNK2, Homo sapiens, UniProt Q9Y3S1)
Sequence of UniProt Q9Y3S1 (whole entry, looked up): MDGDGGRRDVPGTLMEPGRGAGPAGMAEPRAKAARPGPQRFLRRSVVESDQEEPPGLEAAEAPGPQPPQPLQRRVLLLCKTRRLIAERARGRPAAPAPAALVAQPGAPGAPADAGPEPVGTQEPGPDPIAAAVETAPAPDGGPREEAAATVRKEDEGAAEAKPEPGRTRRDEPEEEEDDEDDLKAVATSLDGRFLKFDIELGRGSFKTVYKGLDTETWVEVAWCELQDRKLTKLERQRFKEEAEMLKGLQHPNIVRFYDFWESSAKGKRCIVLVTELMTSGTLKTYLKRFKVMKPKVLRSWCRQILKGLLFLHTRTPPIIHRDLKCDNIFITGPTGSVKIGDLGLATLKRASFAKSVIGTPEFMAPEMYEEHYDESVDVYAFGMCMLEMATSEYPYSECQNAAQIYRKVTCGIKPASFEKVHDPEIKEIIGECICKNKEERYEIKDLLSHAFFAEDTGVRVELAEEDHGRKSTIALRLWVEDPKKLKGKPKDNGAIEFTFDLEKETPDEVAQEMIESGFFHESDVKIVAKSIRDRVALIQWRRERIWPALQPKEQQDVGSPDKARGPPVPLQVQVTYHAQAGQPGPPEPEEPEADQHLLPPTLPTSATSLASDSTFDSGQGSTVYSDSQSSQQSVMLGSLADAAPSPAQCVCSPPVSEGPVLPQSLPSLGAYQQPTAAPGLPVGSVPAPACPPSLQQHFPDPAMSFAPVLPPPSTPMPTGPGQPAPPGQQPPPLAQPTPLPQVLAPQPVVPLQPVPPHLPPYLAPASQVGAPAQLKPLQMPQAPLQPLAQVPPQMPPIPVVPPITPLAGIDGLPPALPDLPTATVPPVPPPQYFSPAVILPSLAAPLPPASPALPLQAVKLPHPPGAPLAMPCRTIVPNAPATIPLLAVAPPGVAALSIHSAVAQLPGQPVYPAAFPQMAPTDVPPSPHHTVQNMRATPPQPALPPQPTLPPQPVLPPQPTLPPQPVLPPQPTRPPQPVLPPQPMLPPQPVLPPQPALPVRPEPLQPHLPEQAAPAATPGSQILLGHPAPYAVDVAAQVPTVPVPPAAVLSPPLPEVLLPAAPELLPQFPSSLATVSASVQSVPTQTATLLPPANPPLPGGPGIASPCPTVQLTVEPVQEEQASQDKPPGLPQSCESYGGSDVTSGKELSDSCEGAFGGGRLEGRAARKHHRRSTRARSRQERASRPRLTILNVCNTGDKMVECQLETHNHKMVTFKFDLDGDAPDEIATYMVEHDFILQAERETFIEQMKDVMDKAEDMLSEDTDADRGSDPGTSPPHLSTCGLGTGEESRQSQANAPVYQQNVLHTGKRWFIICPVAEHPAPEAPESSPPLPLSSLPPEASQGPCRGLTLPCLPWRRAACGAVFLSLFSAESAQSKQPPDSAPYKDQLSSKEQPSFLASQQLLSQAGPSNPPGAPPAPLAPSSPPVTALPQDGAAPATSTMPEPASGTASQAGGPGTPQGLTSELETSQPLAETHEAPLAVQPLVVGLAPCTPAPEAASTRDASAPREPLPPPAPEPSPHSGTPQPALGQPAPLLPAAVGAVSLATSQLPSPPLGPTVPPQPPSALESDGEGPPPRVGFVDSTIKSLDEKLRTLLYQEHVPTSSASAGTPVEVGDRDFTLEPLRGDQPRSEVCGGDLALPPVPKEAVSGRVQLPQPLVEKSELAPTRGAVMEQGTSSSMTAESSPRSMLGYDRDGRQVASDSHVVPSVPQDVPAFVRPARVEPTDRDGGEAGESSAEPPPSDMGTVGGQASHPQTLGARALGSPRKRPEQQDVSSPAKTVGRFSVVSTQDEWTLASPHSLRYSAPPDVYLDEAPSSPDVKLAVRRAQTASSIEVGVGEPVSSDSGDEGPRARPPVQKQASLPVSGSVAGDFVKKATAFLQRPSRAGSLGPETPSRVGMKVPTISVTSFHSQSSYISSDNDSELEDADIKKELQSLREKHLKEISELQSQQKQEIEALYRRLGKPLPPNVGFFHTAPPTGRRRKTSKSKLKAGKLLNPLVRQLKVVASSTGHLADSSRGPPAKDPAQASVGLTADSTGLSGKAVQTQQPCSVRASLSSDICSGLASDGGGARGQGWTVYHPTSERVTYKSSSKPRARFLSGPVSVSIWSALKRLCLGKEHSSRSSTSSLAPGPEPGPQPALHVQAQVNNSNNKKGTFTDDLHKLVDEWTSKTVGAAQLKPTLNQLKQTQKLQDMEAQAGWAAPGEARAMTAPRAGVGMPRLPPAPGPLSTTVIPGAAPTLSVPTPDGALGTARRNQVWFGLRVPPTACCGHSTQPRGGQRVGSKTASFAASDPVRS
SMILES | remaining activity
C#Cc1cccc(Nc2ncnc3cc(OCCOC)c(OCCOC)cc23)c1 | 100%
O=C1NC(=O)C(c2cn(CCCn3ccnc3)c3ccccc23)=C1Nc1ccccc1 | 99.8%
Cn1c2ccccc2c2c3c(c4c5ccccc5n(CCC#N)c4c21)CNC3=O | 103%
Oc1ccc(-c2nc(-c3ccncc3)c(-c3ccc(F)cc3)[nH]2)cc1 | 102%
Cc1ccc(Nc2nccc(N(C)c3ccc4c(C)n(C)nc4c3)n2)cc1S(N)(=O)=O | 98.2%
O=S(=O)(c1cccc2cnccc12)N1CCCNCC1 | 99.3%
Nc1ncnc2n[nH]c(Nc3ccc(F)cc3)c12 | 110%
COc1cc2ncnc(Nc3ccc(F)c(Cl)c3)c2cc1OCCCN1CCOCC1 | 97.2%
Cc1cccc(-c2[nH]c(C(C)(C)C)nc2-c2ccc3c(c2)OCO3)n1 | 105%
COc1ccc(C(=O)Nc2sc3c(c2C(N)=O)CCCC3)cc1OC | 100%
Cc1nc(-c2ccccc2)c(-c2ccncc2)o1 | 101%
O=C1NC(=O)C(c2cn(CCCO)c3ncccc23)=C1c1cnccn1 | 104%
O=C(CCCc1ccc(-c2ccccc2F)cc1)Nc1ccc(O)cc1 | 106%
OCC(O)CCON=C1C(c2c(O)[nH]c3ccccc23)=Nc2ccccc21 (centres unmarked) | 85.4%
CO[C@H]1C[C@@H]2CC[C@@H](C)[C@@](O)(O2)C(=O)C(=O)N2CCCC[C@H]2C(=O)O[C@H]([C@H](C)C[C@@H]2CC[C@@H](O)[C@H](OC)C2)CC(=O)[C@H](C)/C=C(\C)[C@@H](O)[C@@H](OC)C(=O)[C@H](C)C[C@H](C)/C=C/C=C/C=C/1C | 103%
CCOC(=O)c1c(C)[nH]c(/C=C2\C(=O)Nc3ccccc32)c1C | 100%

Series 4 — host: mouse; sample: microsomes or S9; tested at: 2 µM; time: 0.5 h
Compound | remaining compound
COc1ccc(CCCNC(=O)c2cnn3cc(Br)cnc23)cc1 | 4.39%
Cn1nc(C2CC2)c2c(C(=O)Nc3ccc(Cn4cc(Cl)cn4)cc3)cc(C3CC3)nc21 | 86.3%
CC1C(c2ccccc2)CCC(C(=O)O)C1C(=O)O (centres unmarked) | 55.7%
CCOCCOC1CCN(S(=O)(=O)c2cn(C)cn2)CC1 | > 99%
CC(C)CCNC(=O)N1Cc2c(sc3c2CCCC3)-n2cccc2C1c1ccccc1 (centres unmarked) | < 1%

Series 5 — cell line: HaCaT; tested at: 100 µM; time: 36 h
SMILES | viability [%]
COc1ccc(C(C)=O)c(O)c1 | 79.2
CC1(C)S[C@@H]2[C@H](NC(=O)Cc3ccccc3)C(=O)N2[C@H]1C(=O)O | 93
CO[C@H]1/C=C/O[C@@]2(C)Oc3c(C)c(O)c4c(O)c(c(/C=N/N5CCN(C6CCCC6)CC5)c(O)c4c3C2=O)NC(=O)/C(C)=C\C=C\[C@H](C)[C@H](O)[C@@H](C)[C@@H](O)[C@@H](C)[C@H](OC(C)=O)[C@@H]1C | 39.6
C/C(=C(\CCOP(=O)(O)O)SC(=O)c1ccccc1)N(C=O)Cc1cnc(C)nc1N | 58.1
CCOC(=O)c1c(CSc2ccccc2)n(C)c2cc(Br)c(O)c(CN(C)C)c12 | 4.38

Some of these lines once more (series 3):
SMILES | remaining activity
Cn1c2ccccc2c2c3c(c4c5ccccc5n(CCC#N)c4c21)CNC3=O | 103%
C#Cc1cccc(Nc2ncnc3cc(OCCOC)c(OCCOC)cc23)c1 | 100%
COc1ccc(C(=O)Nc2sc3c(c2C(N)=O)CCCC3)cc1OC | 100%
CO[C@H]1C[C@@H]2CC[C@@H](C)[C@@](O)(O2)C(=O)C(=O)N2CCCC[C@H]2C(=O)O[C@H]([C@H](C)C[C@@H]2CC[C@@H](O)[C@H](OC)C2)CC(=O)[C@H](C)/C=C(\C)[C@@H](O)[C@@H](OC)C(=O)[C@H](C)C[C@H](C)/C=C/C=C/C=C/1C | 103%
Cc1ccc(Nc2nccc(N(C)c3ccc4c(C)n(C)nc4c3)n2)cc1S(N)(=O)=O | 98.2%
